Measured values of several laboratories.
Compare with care: the assays were run in different laboratories. Numbers after ± are the reported error. * marks the point of attachment.
F2: Prothrombin (F2, Bos taurus, UniProt P00735)
HLA-DRA/HLA-DRB1: HLA-DRA/HLA-DRB1 (Homo sapiens, UniProt P01903+P01911)
Sequence of UniProt P34897 (whole entry, unmodified, looked up): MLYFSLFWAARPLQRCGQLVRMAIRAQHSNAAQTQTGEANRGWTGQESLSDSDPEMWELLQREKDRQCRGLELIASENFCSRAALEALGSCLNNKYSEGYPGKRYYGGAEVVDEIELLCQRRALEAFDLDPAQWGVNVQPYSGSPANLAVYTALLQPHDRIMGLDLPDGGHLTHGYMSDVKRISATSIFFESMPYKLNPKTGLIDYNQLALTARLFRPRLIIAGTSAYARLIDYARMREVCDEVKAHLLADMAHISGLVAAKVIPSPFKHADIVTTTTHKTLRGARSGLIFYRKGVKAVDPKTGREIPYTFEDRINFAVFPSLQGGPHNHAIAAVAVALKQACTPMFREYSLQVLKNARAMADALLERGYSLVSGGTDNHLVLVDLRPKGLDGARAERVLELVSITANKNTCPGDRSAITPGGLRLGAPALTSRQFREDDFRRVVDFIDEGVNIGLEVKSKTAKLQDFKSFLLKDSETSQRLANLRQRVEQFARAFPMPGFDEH
Sequence of UniProt Q53HV7 (whole entry, looked up): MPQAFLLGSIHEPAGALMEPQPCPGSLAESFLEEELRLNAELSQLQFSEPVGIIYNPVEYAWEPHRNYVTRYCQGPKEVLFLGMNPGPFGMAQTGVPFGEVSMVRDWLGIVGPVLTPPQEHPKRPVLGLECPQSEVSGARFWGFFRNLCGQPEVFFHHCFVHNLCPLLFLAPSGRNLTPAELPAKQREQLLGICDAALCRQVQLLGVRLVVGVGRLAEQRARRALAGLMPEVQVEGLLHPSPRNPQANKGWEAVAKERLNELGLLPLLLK
Sequence of UniProt Q14994 (whole entry, looked up): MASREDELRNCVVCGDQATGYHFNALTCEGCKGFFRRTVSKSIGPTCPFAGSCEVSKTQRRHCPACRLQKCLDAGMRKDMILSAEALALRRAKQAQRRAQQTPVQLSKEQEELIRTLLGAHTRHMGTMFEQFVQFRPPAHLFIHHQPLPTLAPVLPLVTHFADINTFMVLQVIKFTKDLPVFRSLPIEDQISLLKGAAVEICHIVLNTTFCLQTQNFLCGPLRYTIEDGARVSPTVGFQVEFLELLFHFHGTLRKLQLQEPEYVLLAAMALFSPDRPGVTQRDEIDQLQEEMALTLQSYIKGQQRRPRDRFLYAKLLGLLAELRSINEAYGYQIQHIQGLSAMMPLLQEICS
Sequence of UniProt O88703 (whole entry, unmodified, looked up): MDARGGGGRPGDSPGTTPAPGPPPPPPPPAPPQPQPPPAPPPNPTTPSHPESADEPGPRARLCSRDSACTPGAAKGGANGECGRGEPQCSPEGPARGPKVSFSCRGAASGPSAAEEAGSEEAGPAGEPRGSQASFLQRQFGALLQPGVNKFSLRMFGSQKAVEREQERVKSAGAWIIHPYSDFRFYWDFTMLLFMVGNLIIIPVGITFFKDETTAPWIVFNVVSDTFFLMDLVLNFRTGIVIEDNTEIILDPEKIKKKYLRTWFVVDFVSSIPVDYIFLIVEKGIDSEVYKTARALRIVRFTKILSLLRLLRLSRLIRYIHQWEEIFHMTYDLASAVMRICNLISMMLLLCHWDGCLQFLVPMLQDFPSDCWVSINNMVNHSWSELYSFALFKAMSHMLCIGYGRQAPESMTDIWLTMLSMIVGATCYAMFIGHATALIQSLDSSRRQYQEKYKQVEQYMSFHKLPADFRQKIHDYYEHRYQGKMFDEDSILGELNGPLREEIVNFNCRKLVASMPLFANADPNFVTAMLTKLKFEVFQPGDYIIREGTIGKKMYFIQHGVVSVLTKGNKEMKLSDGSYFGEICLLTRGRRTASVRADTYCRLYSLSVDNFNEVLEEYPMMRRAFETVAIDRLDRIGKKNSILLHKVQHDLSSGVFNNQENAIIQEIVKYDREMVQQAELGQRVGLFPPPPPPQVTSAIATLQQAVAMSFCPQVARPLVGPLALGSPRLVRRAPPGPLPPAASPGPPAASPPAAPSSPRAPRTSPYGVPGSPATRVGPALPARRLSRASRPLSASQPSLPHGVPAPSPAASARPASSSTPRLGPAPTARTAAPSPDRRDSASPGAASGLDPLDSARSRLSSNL
Sequence of UniProt P06276 (whole entry, looked up): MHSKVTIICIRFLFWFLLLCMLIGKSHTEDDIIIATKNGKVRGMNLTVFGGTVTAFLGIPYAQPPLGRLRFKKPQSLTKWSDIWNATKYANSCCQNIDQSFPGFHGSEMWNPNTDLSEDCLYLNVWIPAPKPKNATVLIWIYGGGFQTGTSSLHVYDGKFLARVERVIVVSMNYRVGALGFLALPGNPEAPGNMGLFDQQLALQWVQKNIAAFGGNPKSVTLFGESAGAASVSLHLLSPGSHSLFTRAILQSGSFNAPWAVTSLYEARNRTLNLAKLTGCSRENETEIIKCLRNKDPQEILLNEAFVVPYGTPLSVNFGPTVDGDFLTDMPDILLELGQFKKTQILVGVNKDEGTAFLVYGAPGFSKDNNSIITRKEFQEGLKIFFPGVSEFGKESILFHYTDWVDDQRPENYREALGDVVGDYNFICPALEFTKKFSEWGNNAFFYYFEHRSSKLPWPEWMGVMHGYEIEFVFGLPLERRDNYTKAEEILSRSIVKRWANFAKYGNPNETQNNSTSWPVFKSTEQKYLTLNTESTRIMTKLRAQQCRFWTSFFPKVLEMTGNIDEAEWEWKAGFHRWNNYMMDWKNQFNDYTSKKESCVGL
Sequence of UniProt Q14654 (whole entry, looked up): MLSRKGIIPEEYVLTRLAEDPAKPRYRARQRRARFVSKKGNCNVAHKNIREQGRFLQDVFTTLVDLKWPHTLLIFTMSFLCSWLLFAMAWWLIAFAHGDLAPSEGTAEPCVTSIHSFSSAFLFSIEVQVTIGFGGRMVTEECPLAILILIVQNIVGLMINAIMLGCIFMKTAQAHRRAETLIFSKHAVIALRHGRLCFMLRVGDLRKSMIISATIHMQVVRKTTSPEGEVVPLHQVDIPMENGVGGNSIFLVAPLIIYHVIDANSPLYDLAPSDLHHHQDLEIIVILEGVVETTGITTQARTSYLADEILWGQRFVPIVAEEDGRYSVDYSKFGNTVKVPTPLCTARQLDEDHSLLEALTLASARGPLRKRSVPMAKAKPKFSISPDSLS
Sequence of UniProt P14780 (whole entry, looked up): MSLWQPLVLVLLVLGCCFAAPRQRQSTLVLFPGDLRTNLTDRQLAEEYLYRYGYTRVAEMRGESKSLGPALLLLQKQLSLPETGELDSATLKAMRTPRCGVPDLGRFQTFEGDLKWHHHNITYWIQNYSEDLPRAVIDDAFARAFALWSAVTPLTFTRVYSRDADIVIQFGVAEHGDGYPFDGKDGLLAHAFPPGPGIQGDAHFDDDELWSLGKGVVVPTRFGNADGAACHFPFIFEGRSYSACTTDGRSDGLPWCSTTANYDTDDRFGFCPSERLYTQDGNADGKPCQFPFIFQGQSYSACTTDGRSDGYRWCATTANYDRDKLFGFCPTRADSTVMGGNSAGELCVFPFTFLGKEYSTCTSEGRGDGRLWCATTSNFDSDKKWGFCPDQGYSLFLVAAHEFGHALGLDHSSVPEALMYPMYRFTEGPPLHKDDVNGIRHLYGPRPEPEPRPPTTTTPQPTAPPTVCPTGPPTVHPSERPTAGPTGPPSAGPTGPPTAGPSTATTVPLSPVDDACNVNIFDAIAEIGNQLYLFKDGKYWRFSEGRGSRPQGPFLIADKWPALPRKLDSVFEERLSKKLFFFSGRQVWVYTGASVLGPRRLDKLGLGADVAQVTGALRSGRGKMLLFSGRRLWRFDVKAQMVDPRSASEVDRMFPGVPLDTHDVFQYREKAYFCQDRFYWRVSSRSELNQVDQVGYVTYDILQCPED
Sequence of UniProt P22303 (whole entry, looked up): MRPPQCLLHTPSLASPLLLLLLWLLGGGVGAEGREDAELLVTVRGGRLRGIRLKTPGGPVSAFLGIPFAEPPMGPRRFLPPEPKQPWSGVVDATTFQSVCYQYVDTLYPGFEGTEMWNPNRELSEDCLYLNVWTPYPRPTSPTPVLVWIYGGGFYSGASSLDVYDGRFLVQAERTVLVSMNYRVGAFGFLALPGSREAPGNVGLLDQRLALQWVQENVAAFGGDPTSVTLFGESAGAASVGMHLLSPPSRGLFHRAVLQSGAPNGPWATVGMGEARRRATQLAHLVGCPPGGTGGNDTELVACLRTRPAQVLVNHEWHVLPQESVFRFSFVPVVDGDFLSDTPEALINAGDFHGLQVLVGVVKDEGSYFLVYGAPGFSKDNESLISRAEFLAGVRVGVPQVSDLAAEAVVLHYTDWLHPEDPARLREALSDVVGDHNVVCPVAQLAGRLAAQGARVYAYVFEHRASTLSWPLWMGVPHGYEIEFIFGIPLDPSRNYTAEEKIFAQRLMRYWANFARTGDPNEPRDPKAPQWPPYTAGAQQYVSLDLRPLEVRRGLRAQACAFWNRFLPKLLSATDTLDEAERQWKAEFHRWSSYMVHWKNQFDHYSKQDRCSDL

PAALVAC (6-FAM-labelled)
substrate release rate constant (MMP9 (Homo sapiens, UniProt P14780); substrate, fluorescence; peptide): 0.00379 h⁻¹

benzalkonium bromide
IC50 (ACHE (Homo sapiens, UniProt P22303); enzyme activity, inhibitor): inactive

Levobupivacaine
mean open time (Sodium channel protein type 4 alpha, BTX-activated (Oryctolagus cuniculus, UniProt G1SLL9); channel gating): 173 ms

Ac-DEVD-CHO
Hill slope (Caspase-6 (CASP6, Homo sapiens, UniProt P55212); inhibitor): -0.9

Ac-TFELQGGGPRGVNL-NH2 (N-acetyl, C-amide)
Km (F2; substrate, HPLC; bovine thrombin; pH 7.4, 25 °C, 0.1% PEG): 326 ± 79 µM

insulin human
fold change (refers to: NEGR1 mRNA; EcoHIV-infected mouse, brain; i.p., dose not given; reference: PBS): 1.25

Aprotinin
inhibition (Ribosomal processing cysteine protease Prp (prp, Staphylococcus aureus, UniProt Q2FXS9, N63Q); 10 µM, enzyme dimer 21.4 nM, added: FITC peptide substrate 0.5 µM): -29 ± 4.6%

IDLSDVELDDLGKDEL
percentile rank of IC50 (HLA-DRA/HLA-DRB1; binding, radiolabeled peptide competition; peptide): 92.4%

evodiamine
efficacy (Cholinesterase (BCHE, Homo sapiens, UniProt P06276); enzyme activity): -89.5 ± 11.2%

phosphatidylinositol bisphosphate
long open time constant (ATP-sensitive inward rectifier potassium channel 11 (Homo sapiens, UniProt Q14654); single-channel patch clamp; concentration not given, reactivation after rundown): 3.7 ± 1.1 ms

ginkgolide B
onset time constant (Rdl (Drosophila melanogaster, UniProt P25123); inhibition of GABA response, antagonist; Drosophila; EC50 GABA, compound at IC50): 8.4 ± 1.7 s

Ac-AEDDLPTVELQGVVPRGVNL-NH2 (N-acetyl, C-amide)
Km (F2; substrate, HPLC hydrolysis; pH 7.4, 25 °C, 0.1% PEG, 100 mM NaCl): 300 ± 54 µM

Cbz-Arg-Arg-{AMC} (Z-RR-AMC; Cbz = O=C(OCc1ccccc1)*; AMC = Cc1cc(=O)oc2cc(N*)ccc12)
optimal CaCl2 concentration (Metacaspase-2 (MCA2, Trypanosoma brucei brucei, UniProt Q585F3); kcat/KM, substrate): 250 µM

PPAENSSAPEAEQGGAE
IC50 (HLA-DRA/HLA-DRB1; binding, inhibitor, radiolabelled peptide competition; peptide; added: radiolabelled peptide): 50 µM

tunicamycin
activation (SMUG1 (Homo sapiens, UniProt Q53HV7); glycosylase activity, activator, fluorescence; 10 µM): > 200%

FYGQTLGQAQAHSQEQ
percentile rank of IC50 (HLA-DRA/HLA-DRB1; binding, radiolabeled peptide competition; peptide): 92.4%

abamectin
activity (Nuclear receptor subfamily 1 group I member 3 (Homo sapiens, UniProt Q14994); cell-based; concentration not given): inactive

tetrahydrofolate
Vmax (SHMT2 (Homo sapiens, UniProt P34897, Y105A); enzyme activity, substrate, MTHFD2-coupled NADH fluorescence; Y105A mutant): 44 fluorescence units/s

Ac-AESDLPTVELQGVVPRGVNL-NH2 (N-acetyl, C-amide)
Km (F2; substrate, HPLC hydrolysis; pH 7.4, 25 °C, 0.1% PEG, 100 mM NaCl): 270 ± 43 µM

dihydrofolic acid
Km (DHFR (Homo sapiens, UniProt P00374); substrate, spectrophotometric): 5.08 µM

Ac-APPIPPPRRKR-NH2 (N-acetyl, C-amide)
C–D stretch band area (Tyrosine-protein kinase Fyn, SH3 domain (FYN, Homo sapiens, UniProt P06241); binding, FTIR spectroscopy; peptide; 4 mM, pH 7.0, band A, protein complex): 15 ± 1%

cGMP
−TΔS (Potassium/sodium hyperpolarization-activated cyclic nucleotide-gated channel 2, C-terminal region (Hcn2, Mus musculus, UniProt O88703, R591A); binding, ITC): 426000 kcal/mol

Excerpt of the above:
Cbz-Arg-Arg-{AMC} (Z-RR-AMC; Cbz = O=C(OCc1ccccc1)*; AMC = Cc1cc(=O)oc2cc(N*)ccc12)
optimal CaCl2 concentration (Metacaspase-2 (MCA2, Trypanosoma brucei brucei, UniProt Q585F3); kcat/KM, substrate): 250 µM

PPAENSSAPEAEQGGAE
IC50 (HLA-DRA/HLA-DRB1; binding, inhibitor, radiolabelled peptide competition; peptide; added: radiolabelled peptide): 50 µM
